Published values gathered from unrelated publications.
Compare with care: the assays were run in different laboratories. ± marks the error that the study gave.
rep main protease: Replicase polyprotein 1ab, main protease (rep, Severe acute respiratory syndrome coronavirus 2, UniProt P0DTD1)

SMILES | target or system | assay | test system | setting | endpoint | value
O=C(N1CCC2(CC1)C[C@@H](CN1CCCCS1(=O)=O)CCO2)C1(c2ccccc2)CCCC1 | Zaire ebolavirus | viral replication | Vero | – | EC50 | > 30000 nM
COc1ccc2nc3cc(Cl)ccc3c(Nc3cc(CN4CCCC4)c(O)c(CN4CCCC4)c3)c2n1 | Zaire ebolavirus | viral replication | HeLa | 24 h | EC50 | 1140 nM
O=C(O)c1cc(NCc2cc(O)ccc2O)ccc1O | rep main protease | reporter gene (mKate2), inhibitor | – | 20 µM | inhibition | -1.4%
Nc1nc2c(ncn2COCCO)c(=O)[nH]1 | Zaire ebolavirus | viral replication | HeLa | 24 h | EC50 | > 25000 nM
CN(C)CCNC(=O)c1cc2occc2n1C | Zaire ebolavirus | pseudovirus entry | A549 | – | EC50 | > 100000 nM
CN1CCN(C(c2ccccc2)c2ccc(Cl)cc2)CC1 (stereo not shown) | Zaire ebolavirus | viral entry | A549 | 12.5 µM | inhibition | ≥ 75%
CN(C)C1CCN(C(=O)c2cc3ccccc3n2Cc2ccc(F)cc2)CC1 | Zaire ebolavirus | viral replication | HeLa, Mayinga, wild type | – | EC50 | > 20000 nM
Cn1cnc(Cn2c(=O)[nH]/c(=N\c3cc4cn(C)nc4cc3Cl)n(Cc3cc(F)c(F)cc3F)c2=O)n1 | – | – | human, severe renal impairment | oral, 375 mg | anaemia TEAE, Moderate severity | 0%
NC(=O)c1nc(F)c[nH]c1=O | Zaire ebolavirus | viral replication | HeLa | 24 h | EC50 | > 25000 nM
O=C(Nc1csc(N2CCOCC2)n1)c1ccc(CN2CCOCC2)cc1 | Zaire ebolavirus | viral entry | A549 | EBOV-GP pseudovirus | EC50 | > 100000 nM
COc1cc2c(OCCCC#N)c3c(c(-c4ccc5c(c4)OCO5)c2cc1OC)C(=O)OC3 | Zaire ebolavirus | viral replication | HeLa | – | EC90 | 51 nM
Nc1ncnc2c([C@@H]3N[C@H](CO)[C@@H](O)[C@H]3O)c[nH]c12 | Zaire ebolavirus | antibody staining | HeLa, Kikwit | 12.5 µM | antigen-positive cells | 25%
CCC(CC)COC(=O)[C@H](C)N[P@](=O)(OC[C@H]1O[C@@](C#N)(c2ccc3c(N)ncnn23)[C@H](O)[C@@H]1O)Oc1ccccc1 | Zaire ebolavirus | viral replication | Huh7 minigenome cells | 48 h | EC50 | 970 nM
O=C(NS(=O)(=O)c1ccc(Br)s1)c1ccc(Cl)cc1Cl | rep main protease | reporter gene (mKate2), inhibitor | – | 20 µM | inhibition | -0.936%
COc1cc2c(OC3CCOC3)c3c(c(-c4ccc5c(c4)OCO5)c2cc1OC)C(=O)OC3 (stereo not shown) | Zaire ebolavirus | viral replication | HeLa | – | EC90 | 100 nM
CC[C@H](C)[C@H](NC(=O)[C@H](CC(C)C)NC(=O)[C@H](Cc1c[nH]c2ccccc12)NC(=O)[C@H](CCC(N)=O)NC(=O)[C@@H](NC(=O)[C@H](Cc1ccccc1)NC(=O)[C@H](C)NC(=O)[C@H](CCCCNC(=O)COCCOCCNC(=O)COCCOCCNC(=O)CC[C@H](NC(=O)CCCCCCCCCCCCCCCCCCC(=O)O)C(=O)O)NC(=O)[C@H](CCC(N)=O)NC(=O)[C@H](C)NC(=O)[C@@H](NC(=O)[C@H](CCCCN)NC(=O)[C@H](CC(=O)O)NC(=O)[C@H](CC(C)C)NC(=O)C(C)(C)NC(=O)[C@@H](NC(=O)[C@H](CO)NC(=O)[C@H](Cc1ccc(O)cc1)NC(=O)[C@H](CC(=O)O)NC(=O)[C@H](CO)NC(=O)[C@@H](NC(=O)[C@H](Cc1ccccc1)NC(=O)[C@@H](NC(=O)CNC(=O)[C@H](CCC(=O)O)NC(=O)C(C)(C)NC(=O)[C@@H](N)Cc1ccc(O)cc1)[C@@H](C)O)[C@@H](C)O)[C@@H](C)CC)[C@@H](C)CC)C(C)C)C(=O)N[C@@H](C)C(=O)NCC(=O)NCC(=O)N1CCC[C@H]1C(=O)N[C@@H](CO)C(=O)N[C@@H](CO)C(=O)NCC(=O)N[C@@H](C)C(=O)N1CCC[C@H]1C(=O)N1CCC[C@H]1C(=O)N1CCC[C@H]1C(=O)N[C@@H](CO)C(N)=O | – | – | healthy subjects, single ascending dose | 2.5 mg, day 29 | serum AST | 31.8 ± 33.5 U/L

For quick reference, copied from above:
SMILES | target or system | assay | test system | setting | endpoint | value
COc1cc2c(OCCCC#N)c3c(c(-c4ccc5c(c4)OCO5)c2cc1OC)C(=O)OC3 | Zaire ebolavirus | viral replication | HeLa | – | EC90 | 51 nM
Nc1nc2c(ncn2COCCO)c(=O)[nH]1 | Zaire ebolavirus | viral replication | HeLa | 24 h | EC50 | > 25000 nM
CN1CCN(C(c2ccccc2)c2ccc(Cl)cc2)CC1 (stereo not shown) | Zaire ebolavirus | viral entry | A549 | 12.5 µM | inhibition | ≥ 75%
